Measurements from different studies.
Numbers after ± are the reported error.
UniProt O95983, sequence (whole entry, looked up): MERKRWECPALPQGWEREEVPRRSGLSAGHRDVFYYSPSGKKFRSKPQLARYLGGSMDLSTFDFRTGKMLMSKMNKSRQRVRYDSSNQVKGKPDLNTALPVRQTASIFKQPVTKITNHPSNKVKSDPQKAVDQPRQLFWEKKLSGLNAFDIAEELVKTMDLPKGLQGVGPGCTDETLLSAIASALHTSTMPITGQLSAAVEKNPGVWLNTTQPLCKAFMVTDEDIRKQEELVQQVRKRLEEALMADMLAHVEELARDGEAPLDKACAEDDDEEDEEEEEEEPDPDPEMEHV

`COc1ccc2nc3cc(Cl)ccc3c(Nc3cc(CN4CCCC4)c(O)c(CN4CCCC4)c3)c2n1`: “red cell distribution width (CV)” 15.4% (mouse, blood; oral, 57 mg/kg).
Under “upper gastrointestinal haemorrhage DLT”, `Cn1cncc1-c1c(F)cncc1NC(=O)c1c(N)nn2cc(F)cnc12` is recorded as 2% (human patients; oral, dose not given, 21 days, all doses).
With `COc1cc2c(cc1OC)CN(CCc1ccc(NC(=O)c3cccc4c(=O)c5cccc(OC)c5[nH]c34)cc1)CC2` the AUC(0-inf) was 498 ng·h/mL (CD-1 mouse, male, plasma; intraperitoneal, 0.3 mg/kg).
`C=CC(=O)N1CCC(c2ccc(C(N)=O)c(-c3ccc(Oc4ccccc4)cc3)n2)CC1` — result for “incidence of fatal serious TRAEs”: 0% (CTCAE 4.03; patients with relapsed/refractory MCL; oral, dose not given, total).
Under concentration, `CN1CCN(S(=O)(=O)c2cc([N+](=O)[O-])ccc2N(CCOS(C)(=O)=O)CCOS(C)(=O)=O)CC1` is recorded as “not detected” (NSG mice, brain; intraperitoneal, 5 mg/kg, 0.25 h).
`O=S(=O)(Nc1ccccc1)c1ccc(NC(=S)Nc2ccccc2)cc1`: “blood chemistry level” 0.7 mg/dL (measured: TBIL; male mouse, blood; oral, 20 mg/kg daily, 14 days).
`Cc1cccc(Cn2nc(C3CC3)c3c(NC(=O)c4cnc5cc(OCCN6CCN(C)CC6)ccn45)cccc32)n1` — result for “adverse events incidence”: 18.2% (measured: Dehydration; human platinum-resistant ovarian cancer; oral, dose not given, all-causality).
For `COc1cc2c(Oc3ccc4[nH]c(C)cc4c3F)ccnc2cc1OCC1(N)CC1`, “grade 3 Diarrhoea” read 0% (paediatric recurrent refractory sarcoma; 10 mg).
For `CCCC[C@H](NC(=O)[C@@H]1CCCN1C(=O)c1coc(C)n1)C(=O)N[C@@H](CC(C)C)C(=O)NC(C)(C)C(=O)N[C@@H](CC(C)C)C(=O)N[C@@H](CC(C)C)C(=O)NC(C)(C)C(=O)NC(C)(C)C(=O)NCCC(=O)NC1(CN(C)C)CCC1`, the alpha-helix content was 40.3% (circular dichroism; phosphate buffer; pH 7.4, 20 °C).
For `NCCCC[C@@H]1NC(=O)[C@@H](Cc2c[nH]c3ccccc23)NC(=O)[C@H](c2ccccc2)NC(=O)[C@@H]2C[C@@H](OC(=O)NCCN)CN2C(=O)[C@H](Cc2ccccc2)NC(=O)[C@H](Cc2ccc(OCc3ccccc3)cc2)NC1=O`, “subjects with injection-site pain” read 27% (healthy human volunteers; 600 µg twice daily).
`COc1ncnn2ccc(-c3cnc4nc(C)n(Cc5nnc([C@@H](C)F)o5)c4c3)c12` — result for “patients with decreased WBC count”: 0% (phase 1 trial; human patients; oral, dose not given, CTCAE grade 2).
For `COc1ccc(C[C@@H]2NC(=O)[C@H]([C@@H](C)O)NC(=O)[C@@H]3[C@@H]4CCN3C(=O)[C@@H]3Cc5cn(c6ccc(F)cc56)CCCCCCN(Cc5ccc(cc5)CCNC(=O)[C@]5(C)CCCN5C2=O)C(=O)CCC(=O)N[C@@H](C)C(=O)N[C@H](CNC(=O)CCCCC[N+](C)(C)C)C(=O)N[C@@H](Cc2cccc(c2)CNC(=O)CO4)C(=O)N3)cc1`, “participants with adverse event” read 3.2% (measured: limb discomfort; human; dose not given).
Under “patients with diarrhoea”, `C=CC(=O)Nc1cc(Nc2nccc(Nc3cc(Cl)c(F)cc3C(C)(C)O)n2)c(OC)cc1N1CC[C@@H](N(C)C)C1` is recorded as 56.9% (human patients; oral, 300 mg, treatment-emergent adverse events).
For `CC(C)c1nc(N(C)S(C)(=O)=O)nc(-c2ccc(F)cc2)c1/C=C/[C@@H](O)C[C@@H](O)CC(=O)O`, “incidence of Arthralgia” read 0% (healthy human subjects; oral, dose not given, study CL-0537 safety set).
Under “treatment-related adverse event incidence”, `COc1ccc(-c2c(-c3ccc(C#N)c(F)c3)nc(N3CCC(N)CC3)n(C)c2=O)cc1F` is recorded as 25% (measured: Anemia; neuroendocrine neoplasm patients; oral, 60 mg, any grade, dose expansion).
For `C[C@]1(CO)Cc2ncn(-c3ccc(C#N)c(Cl)c3)c2C(=O)O1`, the half-life was 5.1 h (human, plasma; 5 mg single dose, geometric mean).
`O=C(Nc1ccccc1)C1CCN(C(=O)Oc2cccnc2)CC1`: “subjects with adverse event” 7.1% (measured: metabolism and nutrition disorders; healthy women; oral, 60 mg, 7 days).
`C[C@@H](NC(=O)N1C(=O)[C@H](Cc2ccnc(N)c2)[C@H]1C(=O)O)C1CCCCC1`: “incidence of decreased hemoglobin” 12.5% (healthy adult Chinese volunteers; continuous intravenous infusion, 0.6 mg/kg/h, 5-day infusion, CTCAE 5.0 grading).
For `O=C(Nc1ccc2c(c1)B(O)OC2)c1ccc(Oc2ccccc2)cc1`, the donor concentration was 156 ± 8.5 µM (PAMPA; pre-coated trilayer membrane; 200 µM, 5 h, pH 7.4, donor plate, PBS).
The concentration of `Clc1ccc(Cl)c(-c2cc(Cl)ccc2Cl)c1` is reported as 357 ng/g (Sprague Dawley rat female, adipose tissue; intraperitoneal, 10 mg/kg, 3 weeks).
`O=C1Nc2cc3[nH]nc(-c4ccncc4)c3cc2CN1Cc1ccccc1`: “patients with macular oedema” 0% (CTCAE v4.03; advanced solid tumour patients; intravenous, 4.8 mg/kg).
For `CC(C)[C@@H]1NC(=O)CNC(=O)[C@H](CC(N)=O)NC(=O)[C@H](CCCNC(=N)N)NC(=O)[C@H](Cc2ccc(O)cc2)NC(=O)[C@H](C(C)C)NC(=O)[C@@H](NC(=O)[C@@H](NC(=O)[C@H](CC(N)=O)NC(=O)[C@H](Cc2c[nH]c3ccccc23)NC(=O)[C@H](C)NC(=O)[C@H](Cc2ccccc2)NC(=O)CN)C(C)C)CSSC[C@@H](C(=O)N[C@@H](Cc2c[nH]cn2)C(=O)N[C@@H](CCCNC(=N)N)C(=O)N[C@@H](CCCNC(=N)N)C(=O)N[C@@H](C)C(=O)N[C@@H](CC(N)=O)C(N)=O)NC(=O)[C@H](C(C)C)NC(=O)[C@H](CCCNC(=N)N)NC1=O`, “secondary structure content” read 35.2% (circular dichroism, measured: antiparallel β-sheet; PBS; 80 µM, pH 7.4).
`C[C@@H]1OC(=O)NN=C1c1ccc(-c2ccc(F)cc2)c(C(F)(F)F)c1` — result for “patients with adverse event”: 0% (phase I trial, measured: Anaemia all grades; human patients; 5 mg loading then 0.25 mg daily).
Under “bilirubin increased patients”, `CCN(CCO)CCCC(C)Nc1ccnc2cc(Cl)ccc12` (stereo not shown) is recorded as 14% (newly diagnosed glioblastoma patients; oral, 400 mg/dose, grade 1, together with: radiotherapy plus temozolomide).
The aspartate aminotransferase of `CCCCCOc1ccc(-c2ccc(-c3ccc(C(=O)N[C@H]4C[C@@H](O)[C@@H](OCC[N+](C)(C)C)NC(=O)[C@@H]5[C@@H](O)[C@@H](C)CN5C(=O)[C@H]([C@@H](C)O)NC(=O)[C@H]([C@H](O)[C@@H](O)c5ccc(O)cc5)NC(=O)[C@@H]5C[C@@H](O)CN5C(=O)[C@H]([C@@H](C)O)NC4=O)cc3)cc2)cc1` is reported as 26 U/L (adult ICU patients, mITT, serum; dose not given, EOT).
`CN(C(=O)n1cnc(-c2ccc[n+]([O-])c2)c1)C1CCCCC1` gave a concentration of 334 ± 44.7 ng/g (Wistar rat, medulla oblongata; oral, 10 mg/kg, 1 h, single dose).
`C=CCNc1c(O)cc2c(O)c1C[C@@H](C)C[C@H](OC)[C@H](O)[C@@H](C)/C=C(\C)[C@H](OC(N)=O)[C@@H](OC)/C=C\C=C(/C)C(=O)N2` — result for “patients with TEAE”: 50% (measured: Headache; unresectable or metastatic GIST/STS; intravenous, dose not given, all doses).
For `C[C@H]1CN(c2n[nH]c3nc(N[C@H]4CC[C@H](NS(=O)(=O)CCC(F)(F)F)CC4)ncc23)CCO1`, the remaining binding was 1.11 (Methyl-CpG-binding domain protein 3 (MBD3, Homo sapiens, UniProt O95983); Kinobeads competition, measured: MBD3; 0.032 µM, unit not given; baseline: vehicle).
`CN1CC[C@@H](c2c(O)cc(O)c3c(=O)cc(-c4ccc(C(F)(F)F)cc4Cl)oc23)[C@@H]1CO` — result for “patients with adverse event”: 7.5% (measured: Lymphopenia; relapsed or refractory haematological malignancies; oral, dose not given, grade 3 to 4, all arms).
`CC(=O)c1c(C)c2cnc(Nc3ccc(C4CCN(CCS(C)(=O)=O)CC4)cn3)nc2n(C2CCCC2)c1=O` has an AUC(0-t) of 6050 ng·h/mL (human, dose-escalation trial, plasma; oral, 150 mg twice daily, day 21, multiple doses).
`CC(C)[C@H](C(=O)O[C@H](C#N)c1cccc(Oc2ccccc2)c1)c1ccc(Cl)cc1`: “enzyme contribution to clearance” 19.4% (measured: CYP2C9; human, age 5 years).
For `CO[C@H]1C[C@@H]2CC[C@@H](C)[C@@](O)(O2)C(=O)C(=O)N2CCCC[C@H]2C(=O)O[C@H]([C@H](C)C[C@@H]2CC[C@@H](OC(=O)NCCOCCOCCOCCOCCOCCOCCOCCOCCC(=O)N3CCc4cc(Cn5nc(-c6ccc7oc(N)nc7c6)c6c(N)ncnc65)ccc4C3)[C@H](OC)C2)C[C@@H](O)[C@H](C)/C=C(\C)[C@@H](O)[C@@H](OC)C(=O)[C@H](C)C[C@H](C)/C=C/C=C/C=C/1C`, “abdominal pain TEAE incidence” read 0% (dose-escalation trial; patients with advanced solid tumours; intravenous, 1.6 mg/3 mg weekly, grade ≥3).
With `O=[N+]([O-])c1ccc2c(c1)S(=O)(=O)C=C2` the spleen weight was 0.125 g (male C57BL/6 mice; i.p., 20 mg/kg, day 8, repeated dosing).
For `COc1ncccc1-c1cnn2ccc(N3CCN(C(=O)OC(C)C)CC3)nc12`, “free drug concentration” read 55 nM (rat, CCI mechanical allodynia model, plasma; oral, 10 mg/kg, 240 min).
Under “remaining intact peptide”, `CC[C@H](C)[C@H](NC(=O)[C@H](CCCCN)NC(=O)[C@H](CCC(=O)O)NC(=O)[C@H](CCCCN)NC(=O)[C@H](CO)NC(=O)[C@H](CCCCN)NC(=O)[C@H](CCCNC(=N)N)NC(=O)[C@H](Cc1ccccc1)NC(=O)[C@H](Cc1ccccc1)NC(=O)[C@H](CC(=O)O)NC(=O)CNC(=O)[C@H](CC(C)C)NC(=O)[C@@H](N)CC(C)C)C(=O)NCC(=O)N[C@@H](CCCCN)C(=O)N[C@@H](CCC(=O)O)C(=O)N[C@@H](Cc1ccccc1)C(=O)N[C@@H](CCCCN)C(=O)N[C@@H](CCCNC(=N)N)C(=O)N[C@H](C(=O)N[C@H](C(=O)N[C@@H](CCC(N)=O)C(=O)N[C@@H](CCCNC(=N)N)C(=O)N[C@H](C(=O)N[C@@H](CCCCN)C(=O)N[C@@H](CC(=O)O)C(=O)N[C@@H](Cc1ccccc1)C(=O)N[C@@H](CC(C)C)C(=O)N[C@@H](CCCNC(=N)N)C(=O)N[C@@H](CC(N)=O)C(=O)N[C@@H](CC(C)C)C(=O)N[C@H](C(=O)N1CCC[C@H]1C(=O)N[C@@H](CCCNC(=N)N)C(=O)N[C@H](C(=O)N[C@@H](CCC(=O)O)C(=O)N[C@@H](CO)C(=O)O)[C@@H](C)O)C(C)C)[C@@H](C)CC)C(C)C)[C@@H](C)CC` is recorded as 4.07% (LC-MS; 50% pooled human serum in Tris-HCl buffer; 40 µM, 1 h, pH 7.5, 37 °C; baseline: 0 h value).
The Vd of `CCOC(=O)C1=C[C@@H](OC(CC)CC)[C@H](NC(C)=O)[C@@H](N)C1` is reported as 104 mL (population pharmacokinetic model; Sprague-Dawley rats, male, plasma and urine; oral, 30 mg/kg, alone, bootstrap median).
For `CCc1ccc(CC/C=C/c2ccc3c(c2)C(=O)CC3)cc1`, the Albumin was 33.6 g/L (Sprague-Dawley rat, male; oral, 30 mg/kg/day, 14 days).

Repeated from above:
Under “patients with diarrhoea”, `C=CC(=O)Nc1cc(Nc2nccc(Nc3cc(Cl)c(F)cc3C(C)(C)O)n2)c(OC)cc1N1CC[C@@H](N(C)C)C1` is recorded as 56.9% (human patients; oral, 300 mg, treatment-emergent adverse events).
`C=CCNc1c(O)cc2c(O)c1C[C@@H](C)C[C@H](OC)[C@H](O)[C@@H](C)/C=C(\C)[C@H](OC(N)=O)[C@@H](OC)/C=C\C=C(/C)C(=O)N2` — result for “patients with TEAE”: 50% (measured: Headache; unresectable or metastatic GIST/STS; intravenous, dose not given, all doses).
The Vd of `CCOC(=O)C1=C[C@@H](OC(CC)CC)[C@H](NC(C)=O)[C@@H](N)C1` is reported as 104 mL (population pharmacokinetic model; Sprague-Dawley rats, male, plasma and urine; oral, 30 mg/kg, alone, bootstrap median).
For `C[C@]1(CO)Cc2ncn(-c3ccc(C#N)c(Cl)c3)c2C(=O)O1`, the half-life was 5.1 h (human, plasma; 5 mg single dose, geometric mean).
For `CCc1ccc(CC/C=C/c2ccc3c(c2)C(=O)CC3)cc1`, the Albumin was 33.6 g/L (Sprague-Dawley rat, male; oral, 30 mg/kg/day, 14 days).
For `COc1cc2c(Oc3ccc4[nH]c(C)cc4c3F)ccnc2cc1OCC1(N)CC1`, “grade 3 Diarrhoea” read 0% (paediatric recurrent refractory sarcoma; 10 mg).
